Published values of several laboratories.
Numbered parts are unrelated; each lists some results of a single study.

Sample 1
Target: Fragile X messenger ribonucleoprotein 1, C-terminal low-complexity region (Fmr1, Mus musculus, UniProt P35922)
Method: RNA Bind-n-Seq
Molecule type: RNA
Sample: in vitro
Tested at: 200 nM
Notes: whole 134-nt RNA, ends assumed
With: 150 mM LiCl
Reference: input library
Reading: higher = stronger binding
All molecules: 7-deaza-guanosine replaces G
Constant ends, left off below: GGGAGUUCUACAGUCCGACGAUC … UGGAAUUCUCGGGUGUCAAGG
Oligonucleotide | log2 enrichment
UGGGAGGUGGAUUUUGUUUAUUUUUUUAGCUCAUUUCCAGGGGUGGGAAUCUUUUUUUAAUAUGUGUCAUGAAUAAAGUUGUUUUUGAAA | -0.185
CCUCAAGUCCUGUGCUACACAUCGUAUGUACCGAAUCGGAGGUGGUUUUUGGAAAGUAUUAUGUUACGCCGUUCGGAUCUGCACUUCCAG | -0.391
GCAGGAAGUAAAAACAAAUGGAAAUGCUUCGGAUAGUGGCAGCGGUGGGGGUUGCUAAGGAAAGGGUGGGAUGGGAGUGGGUAAAGAGUU | 1.1
CAAGUCCUGUGCUACACAUCGUAUGUACCGAAUCGGGGUUUGGUUUGGGUUUGGGGAAAGUAUUAUGUUACGCCGUUCGGAUCUGCACUU | -1.81
GUCCUGUGCUACACAUCGUAUGUACCGAAUCGGGGUUUUUGGGGUUUGGGGUUUGGGGAAAGUAUUAUGUUACGCCGUUCGGAUCUGCAC | -0.823

Sample 2
Target: RNA binding protein fox-1 homolog 2, RRM domain, GST-SBP tag (RBFOX2, Homo sapiens, UniProt O43251-10, residues 100-194)
Method: RNA Bind-n-Seq
Molecule type: RNA
Sample: in vitro
Tested at: 365 nM
Notes: natural RNA segment, single round, ends assumed
Reference: no-protein control
Reading: higher = stronger binding
Constant ends, left off below: GGGAGUUCUACAGUCCGACGAUC … UGGAAUUCUCGGGUGCCAA
Construct (chain): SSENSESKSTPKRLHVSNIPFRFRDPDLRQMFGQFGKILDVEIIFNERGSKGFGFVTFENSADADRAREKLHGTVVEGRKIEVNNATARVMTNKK
Oligonucleotide | RBNS enrichment (R)
CCCCAAAUUCUUUUGUUGUGUGUGCGAAGGGGGUUUUGCGCACUGUGCCAAGCCUUGUCCACUGGAAUGCAUCCAGAACAGCAGCACCAUCUAGCGGCAGGUUGAGGAAA | 1.68
ACUUUUUUCCUUAGGGGGAGGUUUGCCUUAAAGGCUUUUAAUUUUGUUUUGUUUGCAAACAUGUUUUAAAUUAAAUUCGGGUAAUAUUAAACAGUACAUGUUUACAAUAC | 0.811
GUGAGCCACUUCCCUUCCCUGCUGCCAGGGGCACGUCCCCCAUCCCCGACUACCCUAUUUAUUAUUGUAGCUAUUUAUUUAUUUAUUGAGGAUGUGCCCCGAGCGCACCC | 0.365
ACACCGGAAGGUUUUUAAACACUAAAAUAUAUAAUUUAUAGUUAAGGCUAAAAAGUAUAUUUAUUGCAGAGGAUGUUCAUAAGGCCAGUAUGAUUUAUAAAUGCAAUCUC | 0.726
UGUAUUAGAAAUGCAAGUUCCCAGCCCCAUCCCAGACCUACUGAAUCAGAAACUCUGGGGGCGAGGGCUGAAACCUGCUUUCAUAAGCCCUUCAGGCGAUACUGAUGUAA | 0.264
GUUUGCAUUAAUAUCAAGGCAAAAAGCAUUCAUAGAUACAUGCAUCUGAUUUGGUAUUGUGAUUUACUUCAGACCCUGAAACCAAAUAUCUGAUCUUCCAUUAGACUUAG | 1.43
AUAUCCACAAGAAGUGCCUCUUAGGUCUGUGACAGAGAGUGUGUCUCCAUUCCUCAGUUCCCAGAAAGGGGAGAGGUUUGGCCUAAAAAGCAUGUAGAUGGGGGAGAAAU | 3.94
CUAGCUCCCGGUAGAGGAUCACCGGUGACAACUAUAGCAGUUGUAUUGUGUAACAAGUACUGCUCCCAGCAGCAAUUAGGGAGAAAACUAGUCUAAAUUAUUUCAACUGG | 0.363

Sample 3
Target: PABPC1L2, full length, GST fusion (mouse, UniProt A0ABA7IW68)
Method: RNAcompete
Molecule type: RNA
Sample: in vitro
Tested at: 20 nM
Notes: 7-mer, probes averaged, single round
Reference: mean of 7-mers
Reading: higher = stronger binding
Residues (chain): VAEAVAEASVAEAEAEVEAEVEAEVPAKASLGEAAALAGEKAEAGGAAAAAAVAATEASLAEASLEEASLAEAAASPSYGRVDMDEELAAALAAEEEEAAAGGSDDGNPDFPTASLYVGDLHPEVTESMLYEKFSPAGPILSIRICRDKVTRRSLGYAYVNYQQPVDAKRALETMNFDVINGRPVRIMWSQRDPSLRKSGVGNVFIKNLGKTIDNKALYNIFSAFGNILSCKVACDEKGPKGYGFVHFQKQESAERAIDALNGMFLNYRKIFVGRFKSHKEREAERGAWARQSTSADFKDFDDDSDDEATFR
Oligonucleotide | 7-mer Z-score
AUCGAUA | 0.0841
GCAUUUC | -0.313
AGCGCUU | -0.306
CGGAUAC | -0.05
GAUUGAG | -0.159
UAUUUAC | 0.137
ACCGGCU | -0.15
ACCAGAG | -0.0192
GCUACCA | -0.108
UAUCUGC | -0.291
ACGCUCA | -0.0264
AAAGAUC | 1.55
GUCGAAU | -0.204
UGAGGAC | -0.0355

Sample 4
Target: Sal-like protein 4, full length isoform A (SALL4, Homo sapiens, UniProt Q9UJQ4, residues 1-1053)
Sequence of UniProt Q9UJQ4 (whole entry, looked up): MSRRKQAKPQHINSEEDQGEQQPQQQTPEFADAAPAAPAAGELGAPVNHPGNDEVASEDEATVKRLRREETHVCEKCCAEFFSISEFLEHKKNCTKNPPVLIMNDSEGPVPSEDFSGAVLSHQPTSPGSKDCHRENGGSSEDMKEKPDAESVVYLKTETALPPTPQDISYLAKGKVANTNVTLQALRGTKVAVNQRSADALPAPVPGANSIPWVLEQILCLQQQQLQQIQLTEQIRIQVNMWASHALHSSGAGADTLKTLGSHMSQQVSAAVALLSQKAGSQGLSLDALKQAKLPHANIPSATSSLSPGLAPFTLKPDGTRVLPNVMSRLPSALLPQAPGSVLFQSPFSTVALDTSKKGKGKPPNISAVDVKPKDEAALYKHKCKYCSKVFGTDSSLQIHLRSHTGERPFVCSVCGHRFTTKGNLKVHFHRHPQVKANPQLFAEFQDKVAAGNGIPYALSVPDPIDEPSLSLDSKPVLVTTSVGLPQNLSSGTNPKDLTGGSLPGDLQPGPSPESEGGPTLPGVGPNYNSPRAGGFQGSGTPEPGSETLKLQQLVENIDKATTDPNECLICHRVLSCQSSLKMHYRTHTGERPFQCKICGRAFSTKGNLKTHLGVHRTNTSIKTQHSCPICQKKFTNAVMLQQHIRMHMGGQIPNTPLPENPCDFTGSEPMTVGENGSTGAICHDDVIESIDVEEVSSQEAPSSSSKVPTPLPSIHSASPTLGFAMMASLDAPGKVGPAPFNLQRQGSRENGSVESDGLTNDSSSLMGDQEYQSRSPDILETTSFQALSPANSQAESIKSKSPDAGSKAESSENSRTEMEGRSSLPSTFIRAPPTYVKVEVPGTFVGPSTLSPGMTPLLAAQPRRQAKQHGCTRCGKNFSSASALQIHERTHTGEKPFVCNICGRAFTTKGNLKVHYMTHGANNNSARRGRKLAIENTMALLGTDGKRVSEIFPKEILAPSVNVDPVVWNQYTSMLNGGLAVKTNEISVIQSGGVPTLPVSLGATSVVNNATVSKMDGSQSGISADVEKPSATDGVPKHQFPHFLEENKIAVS
Method: universal PBM
Molecule type: double-stranded DNA, one strand shown
Sample: in vitro
Tested at: 600 nM
Notes: 8-mer, flanks averaged, mean of replicates
Reading: higher = stronger binding
Oligonucleotide | E-score
CGCTGGGA | -0.375
AGCCCTCC | -0.358
CGTCTCAA | 0.0865
AATGACCC | -0.167
TATAAAAA | 0.383
ACTACAGA | 0.259
CTTTATTC | 0.166
AACGGCTA | -0.042
ATCGAAAG | 0.115
GAGTCATA | 0.233
CAGGACTG | -0.189
CTGTGATA | 0.134
ATCTGCGC | -0.198
GTCTCGTA | -0.0257
ACTCATAC | 0.223
AAGATTGA | 0.14
CCGCGGAC | -0.4
CGCCAAGA | -0.233
CATGTACG | 0.0977
CATACGCG | -0.0592
GACAGTGA | -0.0636
GTGCGGGA | -0.211
AACATGGT | -0.06
ATGCATCA | 0.259

Sample 5
Target: Interferon regulatory factor 5, full length, phosphomimetic (IRF5, Homo sapiens, UniProt Q13568-2, residues 1-514, K96S/S451D/S453D/S456D/S462D)
Method: protein-binding microarray
Molecule type: double-stranded DNA, one strand shown
Sample: in vitro
Tested at: 250 nM
Notes: 60-bp whole probe
With: salmon DNA 0.4 mg/ml
Reference: random background probes
Reading: higher = stronger binding
Constant ends, left off below: GCCTAGCAC … GTCTTGATTCGCTTGACGCTGCTG
Oligonucleotide | log fluorescence
AACGAACTGGGGTTTCGAGACGTGCTA | 1.33 z-score
TCATGTTTCCTCTTTCAACTGTGCTAG | 1.94 z-score
TCAAGTTTCTCAACCACACTGTGCTAG | 0.972 z-score
GTGAAATAAGGGAGGCCTAGGTGCTAG | -0.117 z-score
GACCGACTGGGTCTCGGGACGTGCTAG | -0.567 z-score
CACGATCTCAGTCTCGAGACGTGCTAG | -0.0729 z-score
TTAGATATTAAACTGATAGGGTGCTAG | 0.245 z-score
TTATGTTTCGGTATCGGTTAGTGCTAG | 10.8 z-score
TTAGGTATCGGGATTGGGTTAGTGCTA | 2.48 z-score
TCATTTTTTTTTTTGTAACTGTGCTAG | 1.09 z-score
GGTGTTTTACAGGTTCTCTTTGTGCTA | -0.0295 z-score
TTAGATATCGTGTTTCGATTAGTGCTA | 6.88 z-score
GACGGACTGCTTATCATGACGTGCTAG | -0.281 z-score

Single results of other studies
Target: human cyclin A2
Read-out: peptide binding
Method: competitive growth sequencing
Molecule type: peptide
Organism: Saccharomyces cerevisiae
Strain: cyclin A2-Cln2 fusion strain
Tested at: concentration not given
Reference: unfused Cln2 strain
Reading: direction not given
Sequence | binding score
MDASRQLMLNEEQ | -0.251
APPRKALFTYPKG | 1.36

Repeated from above (sample 4):
Oligonucleotide | E-score
AGCCCTCC | -0.358
CGTCTCAA | 0.0865
AATGACCC | -0.167
TATAAAAA | 0.383
ACTACAGA | 0.259
CTTTATTC | 0.166
AACGGCTA | -0.042
ATCGAAAG | 0.115
GAGTCATA | 0.233
CAGGACTG | -0.189
